{"data": "Measured values pooled from the literature", "note": "Lines come from different studies, so protocols differ. Numbers after ± are the reported error."}
{"SMILES": "O=C(O)c1ccc(NCc2cc(Cl)cc(Cl)c2O)cc1O", "target or system": "Nitric oxide synthase 1, PDZ domain (Homo sapiens, UniProt P29475)", "assay": "PSD95-nNOS binding disruption, inhibitor, AlphaScreen", "quantity": "IC50", "result": "12.8 µM"}
{"SMILES": "CNC(C)Cc1ccc2c(c1)OCO2 (racemic)", "assay": "visual analog scale, refers to: Restless", "system": "human", "setting": "oral, 0.75 mg/kg, mean over session, unit not given", "scale": "relative to: pre-dose baseline", "quantity": "mood rating", "result": 18.1}
{"SMILES": "CN[C@@](C)(C[18F])C(=O)O", "target or system": "SK-OV-3 tumour model", "system": "host not given, heart", "setting": "2 h, tumour-bearing", "quantity": "tracer uptake", "result": "2.3 %ID/g"}
{"SMILES": "O=C(O)C(=O)C=C(O)c1cn(Cc2ccc(F)cc2)c2cc(N3CCCC3)ccc2c1=O", "target or system": "Gag-Pol polyprotein, integrase (gag-pol, Human immunodeficiency virus 1, UniProt P12497)", "assay": "concerted integration, inhibitor, refers to: CHS products", "setting": "2 h, 37 °C", "quantity": "IC50", "result": "1.76 ± 0.362 µM"}
{"SMILES": "C[C@H]1CNCCc2ccc(Cl)cc21", "system": "male Sprague-Dawley rat, plasma", "setting": "subcutaneous, 0.5 mg/kg, single dose", "quantity": "half-life", "result": "2.39 h"}
{"SMILES": "c1cncc(OC[C@@H]2CCCN2)c1", "target or system": "Neuronal acetylcholine receptor; alpha4/beta2 (Rattus norvegicus, UniProt P09483+P12390)", "assay": "ligand displacement, radioligand", "setting": "cell membranes", "quantity": "IC50", "result": "0.00251 µM"}
{"SMILES": "COc1ccc(NC(=O)Nc2nc(SCC(=O)C(C)(C)C)ns2)cc1", "target or system": "ROP18 (Toxoplasma gondii, UniProt Q2PAY2)", "assay": "enzyme activity, inhibitor", "quantity": "IC50", "result": "> 10 µM"}
{"SMILES": "NCCCN1CCN(CCO)CC1", "target or system": "Thioredoxin glutathione reductase (Schistosoma mansoni, UniProt Q962Y6)", "assay": "enzyme activity, inhibitor, absorbance", "setting": "with preincubation", "quantity": "IC50", "result": "760 µM"}
{"SMILES": "Cc1cc2ccccc2c2ccc3ccccc3c12", "target or system": "Cytochrome P450 1B1 (CYP1B1, Homo sapiens, UniProt Q16678)", "assay": "enzyme activity, inhibitor", "setting": "5 s, pH 7.4", "quantity": "IC50", "result": "< 0.05 µM"}
{"SMILES": "c1ccc(CCN2CCCCC2)cc1", "target or system": "D(2) dopamine receptor (DRD2, Homo sapiens, UniProt P14416)", "assay": "binding", "system": "CHOp", "setting": "together with: [3H]YM-09151-2 0.21 nM", "quantity": "Ki", "result": "> 10 µM"}
{"SMILES": "N=C(N)NCCC[C@@H]1NC(=O)[C@H](CCCCNC(=O)[C@H](CC(=O)O)NC(=O)[C@H](CC(=O)O)NC(=O)[C@H](CC(=O)O)NC(=O)CC[C@H](NC(=O)CCOCCOCCOCCOCCNC(=O)c2ccc(NN)nc2)C(=O)N[C@@H](CC(=O)O)C(=O)N[C@@H](CC(=O)O)C(=O)N[C@@H](CC(=O)O)C(=O)NCCCC[C@@H]2NC(=O)[C@@H](Cc3ccccc3)NC(=O)[C@H](CC(=O)O)NC(=O)CNC(=O)[C@H](CCCNC(=N)N)NC2=O)NC(=O)[C@@H](Cc2ccccc2)NC(=O)[C@H](CC(=O)O)NC(=O)CNC1=O [technetium-99m labelled]", "assay": "γ-counting", "system": "female athymic nude mice, U-87 MG xenograft, eyes", "setting": "intravenous, 0.5 h", "quantity": "tissue uptake", "result": "0.89 ± 0.25 %ID/g"}
{"SMILES": "CC1(C)CCC(=Cc2ccc(Cl)cc2)C1(O)Cn1cncn1 (stereo not drawn)", "target or system": "Androgen receptor (AR, Homo sapiens, UniProt P10275)", "assay": "reporter gene, antagonist", "system": "T47D-ARE", "setting": "24 h, together with: testosterone 20 nM", "quantity": "IC50", "result": "10.7 µM"}
{"SMILES": "O=C1Nc2ccc(S(=O)(=O)O)cc2C1=C1Nc2ccccc2C1=NO", "target or system": "Putative glycogen synthase kinase (Leishmania major, UniProt Q4QE15, D105E/Y102F)", "assay": "enzyme activity, inhibitor", "setting": "90 min, 30 °C, together with: ATP 2 µM", "quantity": "IC50", "result": "2.29 µM"}
{"SMILES": "Oc1c(Cl)cc(-c2ccccc2Cl)cc1Cl", "target or system": "Sulfotransferase 2A6 (Sult2a6, Rattus norvegicus, UniProt P22789)", "assay": "enzyme activity, inhibitor", "setting": "6 min, 37 °C, together with: DHEA 10 µM", "quantity": "IC50", "result": "160 µM"}
{"SMILES": "CN1C(=O)[C@]23SS[C@@]1(C)C(=O)N2[C@H]1Nc2ccccc2[C@@]1([C@@]12c4ccccc4N[C@@H]1N1C(=O)[C@@]4(C)SS[C@]1(C(=O)N4C)[C@H]2O)[C@@H]3O", "target or system": "Histone-lysine N-methyltransferase 2C (KMT2C, Homo sapiens, UniProt Q8NEZ4)", "assay": "methyltransferase activity, inhibitor", "setting": "together with: 1 µM [3H]SAM", "quantity": "IC50", "result": "> 10 µM"}
{"note": "Some of these lines once more:"}
{"SMILES": "CC1(C)CCC(=Cc2ccc(Cl)cc2)C1(O)Cn1cncn1 (stereo not drawn)", "target or system": "Androgen receptor (AR, Homo sapiens, UniProt P10275)", "assay": "reporter gene, antagonist", "system": "T47D-ARE", "setting": "24 h, together with: testosterone 20 nM", "quantity": "IC50", "result": "10.7 µM"}
